Assay results of several laboratories.
± gives the spread as reported.
Cell line: A549

| SMILES | test | conditions | measurement | value |
| --- | --- | --- | --- | --- |
| O=C(C=Cc1ccccc1)OC1C=CC(O)C(O)(COC(=O)c2ccccc2)C1O (single isomer, unassigned; (-)) | cell growth or viability, MTT | 100 µg/mL | viability | 80.2% |
| COc1cc2c(cc1OC)[C@@H]1C(=O)c3c(O)cc4c(c3O[C@@H]1CO2)C=CC(C)(C)O4 | cell growth or viability, MTT | 100 µg/mL | viability | 68.6% |
| NC[C@H]1O[C@H](O[C@H]2[C@H](O)[C@@H](O[C@H]3O[C@H](Cn4cc(CNC(=S)Nc5ccc6c(c5)C(=O)OC65c6ccc(O)cc6Oc6cc(O)ccc65)nn4)[C@@H](O)[C@H](N)[C@H]3O)[C@H](N)C[C@@H]2N)[C@H](O)[C@@H](O)[C@@H]1O |  | 5 µM, 24 h | cytotoxicity | 2 ± 0.7% |
| COc1cc(Oc2c(O)cc(C)cc2OC)c(C(=O)O)c(C)c1O | MTT | 10 or 50 µM, 48 h | viability | 106 ± 4.3% |
| O=c1c(O)c(-c2ccc(N(c3ccccc3)c3ccccc3)cc2)oc2cc3ccccc3cc12 |  | concentration not given, 24 h, visible light illumination | cytotoxicity | not toxic |
| CCNc1cc2c(cc1C)C1(c3cc(C)c(NCC)cc3O2)c2ccccc2C(=O)N1N=Cc1c[c-]c(-c2ccccn2)cc1.Cc1c(C)c(-c2ccc(-c3ccccc3)cc2)[c-](C)c1C.[Cl-].[Ir+3] | annexin V/PI flow cytometry | 2.0×IC50, 24 h | viable cells | 4.96 ± 0.13% |
| S=c1n(-c2ccccc2)c2c3ccccc3nc3[n+]2[n]1[Ir-3]12([S]3)([c]3ccccc3-c3sc4ccccc4[n+]31)[c]1ccccc1-c1sc3ccccc3[n+]12 | ICP-MS | 10 µM, 24 h, 37 °C | cellular iridium uptake | 2.15 ± 0.16 fmol/cell |
| COc1cc(OC)c(-c2coc3c4c(cc(O)c3c2=O)OC(C)(C)C=C4)cc1OC | cell growth or viability, MTT | 100 µg/mL | viability | 84.6% |
| COC1C=CC(OC(=O)C=Cc2ccccc2)C(O)C1(O)COC(=O)c1ccccc1 (single isomer, unassigned; (-)) | cell growth or viability, MTT | 100 µg/mL | viability | 83.3% |
| COc1cc(Oc2c(O)c(Cl)c(C)c(Cl)c2OC)c(C(=O)O)c(C)c1O | MTT | 10 or 50 µM, 48 h | viability | 99.4 ± 8.6% |
| COc1cc2c(cc1OC)-c1c(oc3c4c(cc(O)c3c1=O)OC(C)(C)C=C4)CO2 | cell growth or viability, MTT | 100 µg/mL | viability | 70.2% |
| S=c1n(-c2ccccc2)c2c3ccccc3nc3[n+]2[n]1[Ir-3]12([S]3)([c]3ccccc3-c3cccc[n+]31)[c]1ccccc1-c1cccc[n+]12 | ICP-MS | 10 µM, 24 h, 37 °C | cellular iridium uptake | 1.58 ± 0.09 fmol/cell |
| COc1cc(Oc2c(O)c(Br)c(C)c(Br)c2OC)c(C(=O)O)c(C)c1O | MTT | 10 or 50 µM, 48 h | viability | 96.6 ± 14.8% |
